Measured values collected from several papers.
Every numbered part comes from another study and shows a few of its results, in no order.
Sequence of UniProt P25089 (whole entry, looked up): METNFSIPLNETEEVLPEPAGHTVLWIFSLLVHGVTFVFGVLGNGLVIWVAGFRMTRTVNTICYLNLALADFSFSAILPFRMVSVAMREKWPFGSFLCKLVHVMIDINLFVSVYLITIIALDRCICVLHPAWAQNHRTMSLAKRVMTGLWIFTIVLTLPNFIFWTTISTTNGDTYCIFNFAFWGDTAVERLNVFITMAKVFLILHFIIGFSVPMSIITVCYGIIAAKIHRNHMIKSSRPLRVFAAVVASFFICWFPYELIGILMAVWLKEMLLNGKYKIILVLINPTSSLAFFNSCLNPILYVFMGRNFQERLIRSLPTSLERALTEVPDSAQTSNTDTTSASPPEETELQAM
Sequence of UniProt Q9NZH0 (whole entry, looked up): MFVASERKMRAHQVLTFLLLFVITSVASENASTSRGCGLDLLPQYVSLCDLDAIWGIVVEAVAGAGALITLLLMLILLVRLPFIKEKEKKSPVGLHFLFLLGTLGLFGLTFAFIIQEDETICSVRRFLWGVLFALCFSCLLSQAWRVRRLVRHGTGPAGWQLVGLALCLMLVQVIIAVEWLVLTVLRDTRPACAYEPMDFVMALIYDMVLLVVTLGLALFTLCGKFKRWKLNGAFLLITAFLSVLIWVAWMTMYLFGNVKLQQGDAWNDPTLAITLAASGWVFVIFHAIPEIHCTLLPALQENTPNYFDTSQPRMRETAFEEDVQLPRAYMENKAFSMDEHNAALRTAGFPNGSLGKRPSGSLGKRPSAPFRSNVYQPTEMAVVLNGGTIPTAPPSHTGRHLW
Sequence of UniProt Q9Y5N1 (whole entry, looked up): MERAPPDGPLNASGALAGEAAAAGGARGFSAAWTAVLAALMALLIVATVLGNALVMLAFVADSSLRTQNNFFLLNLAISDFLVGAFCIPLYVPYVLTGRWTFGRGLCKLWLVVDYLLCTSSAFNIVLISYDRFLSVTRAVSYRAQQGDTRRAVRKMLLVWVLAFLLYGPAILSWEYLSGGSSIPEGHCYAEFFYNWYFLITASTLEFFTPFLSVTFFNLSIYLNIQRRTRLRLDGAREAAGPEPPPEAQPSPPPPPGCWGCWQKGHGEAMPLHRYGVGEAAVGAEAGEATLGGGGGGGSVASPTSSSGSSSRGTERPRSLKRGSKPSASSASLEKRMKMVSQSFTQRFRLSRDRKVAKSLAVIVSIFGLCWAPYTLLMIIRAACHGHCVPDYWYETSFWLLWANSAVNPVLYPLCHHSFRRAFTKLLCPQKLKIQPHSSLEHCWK
Sequence of UniProt Q16538 (whole entry, looked up): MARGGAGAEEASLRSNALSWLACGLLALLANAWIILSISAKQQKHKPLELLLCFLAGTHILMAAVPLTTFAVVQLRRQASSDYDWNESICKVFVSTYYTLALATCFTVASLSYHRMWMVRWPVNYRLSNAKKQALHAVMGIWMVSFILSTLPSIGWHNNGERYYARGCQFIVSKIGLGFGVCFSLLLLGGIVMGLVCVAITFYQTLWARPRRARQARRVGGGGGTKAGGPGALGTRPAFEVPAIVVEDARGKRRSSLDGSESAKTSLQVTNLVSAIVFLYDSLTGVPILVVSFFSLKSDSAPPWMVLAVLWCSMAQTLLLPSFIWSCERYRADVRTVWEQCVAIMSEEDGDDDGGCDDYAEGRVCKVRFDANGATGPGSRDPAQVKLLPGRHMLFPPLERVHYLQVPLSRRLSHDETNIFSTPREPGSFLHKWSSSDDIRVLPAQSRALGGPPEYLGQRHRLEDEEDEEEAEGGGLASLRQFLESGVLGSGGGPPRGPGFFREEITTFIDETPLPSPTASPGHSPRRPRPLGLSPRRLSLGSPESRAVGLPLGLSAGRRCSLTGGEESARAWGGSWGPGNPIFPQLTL
Sequence of UniProt Q13255 (whole entry, looked up): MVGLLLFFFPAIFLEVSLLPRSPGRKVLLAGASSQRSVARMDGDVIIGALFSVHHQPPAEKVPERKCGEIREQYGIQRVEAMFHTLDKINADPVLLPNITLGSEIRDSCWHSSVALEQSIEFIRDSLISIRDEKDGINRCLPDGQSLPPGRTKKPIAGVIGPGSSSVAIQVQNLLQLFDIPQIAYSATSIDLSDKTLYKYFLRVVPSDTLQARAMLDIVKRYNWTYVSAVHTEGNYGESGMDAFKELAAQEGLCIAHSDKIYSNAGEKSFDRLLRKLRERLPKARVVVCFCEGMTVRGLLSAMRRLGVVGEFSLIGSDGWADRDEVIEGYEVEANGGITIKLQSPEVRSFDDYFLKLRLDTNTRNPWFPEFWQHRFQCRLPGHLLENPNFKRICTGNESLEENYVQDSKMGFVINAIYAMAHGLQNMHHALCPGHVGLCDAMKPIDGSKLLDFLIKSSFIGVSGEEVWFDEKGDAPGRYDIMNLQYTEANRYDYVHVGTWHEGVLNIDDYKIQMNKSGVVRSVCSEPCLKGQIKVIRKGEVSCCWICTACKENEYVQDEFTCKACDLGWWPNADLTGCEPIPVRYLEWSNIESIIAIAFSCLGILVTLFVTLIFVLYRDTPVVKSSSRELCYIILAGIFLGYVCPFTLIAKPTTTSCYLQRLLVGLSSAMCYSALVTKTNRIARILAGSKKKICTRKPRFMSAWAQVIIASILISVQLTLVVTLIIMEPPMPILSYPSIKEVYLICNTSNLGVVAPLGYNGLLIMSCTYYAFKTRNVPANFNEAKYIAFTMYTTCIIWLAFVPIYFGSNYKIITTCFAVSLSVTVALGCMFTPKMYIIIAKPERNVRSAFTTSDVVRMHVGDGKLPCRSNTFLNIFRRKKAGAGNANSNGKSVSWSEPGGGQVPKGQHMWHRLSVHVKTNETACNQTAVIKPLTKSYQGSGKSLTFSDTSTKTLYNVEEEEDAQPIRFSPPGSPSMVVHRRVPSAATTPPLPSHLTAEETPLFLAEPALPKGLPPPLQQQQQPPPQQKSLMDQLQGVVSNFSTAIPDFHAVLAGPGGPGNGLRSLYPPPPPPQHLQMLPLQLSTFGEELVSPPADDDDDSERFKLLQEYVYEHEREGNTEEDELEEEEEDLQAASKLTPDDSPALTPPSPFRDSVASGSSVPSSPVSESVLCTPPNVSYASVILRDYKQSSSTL
Sequence of UniProt P30968 (whole entry, looked up): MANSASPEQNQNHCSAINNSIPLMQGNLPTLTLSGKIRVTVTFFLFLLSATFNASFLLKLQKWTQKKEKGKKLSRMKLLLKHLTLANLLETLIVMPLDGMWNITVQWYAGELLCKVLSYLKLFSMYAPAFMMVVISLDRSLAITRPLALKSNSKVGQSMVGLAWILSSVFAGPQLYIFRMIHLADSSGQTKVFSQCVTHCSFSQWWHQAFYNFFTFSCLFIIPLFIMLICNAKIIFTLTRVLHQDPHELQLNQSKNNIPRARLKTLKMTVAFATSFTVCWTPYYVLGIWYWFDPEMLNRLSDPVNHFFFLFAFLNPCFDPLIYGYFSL

Study 1
Cell line: HaCaT
Tested at: 100 µM
Time: 18 h
| SMILES | viability [%] |
| --- | --- |
| CC(=O)Nc1ccccc1 | 108 |
| COc1cc2nc(N3CCN(C(=O)c4ccco4)CC3)nc(N)c2cc1OC | 38.5 |
| O=c1[nH]c(=O)n(C2CCCO2)cc1F (stereo not shown) | 83 |
| Cc1nnc(NS(=O)(=O)c2ccc(N)cc2)s1 | 95.3 |
| Cc1cncc(CN2CCC(=C3c4ccc(Cl)cc4CCc4cccnc43)CC2)c1 | 17.2 |
| O=c1[nH]cc(F)c(=O)[nH]1 | 89.7 |
| O[C@H]1[C@H](O)[C@@H](O)[C@H](O)[C@@H](O)[C@H]1O | 113 |
| C=CCN1CCCC1CNC(=O)c1cc2[nH]nnc2cc1OC (stereo not shown) | 96.2 |
| CCCCC(=O)O[C@]1(C(=O)CO)CC[C@H]2[C@@H]3CCC4=CC(=O)CC[C@]4(C)[C@H]3[C@@H](O)C[C@@]21C | 84.5 |
| CNC(=O)c1cc(Oc2ccc(NC(=O)Nc3ccc(Cl)c(C(F)(F)F)c3)c(F)c2)ccn1 | 51.5 |
| CCCCCCCCN=c1ccn(CCCCCCCCCCn2ccc(=NCCCCCCCC)cc2)cc1 | 19.8 |
| COCCCC/C(=N\OCCN)c1ccc(C(F)(F)F)cc1 | 39.5 |
| O=C(NC1CCN(CCCCC2(C(=O)NCC(F)(F)F)c3ccccc3-c3ccccc32)CC1)c1ccccc1-c1ccc(C(F)(F)F)cc1 | 19.7 |

Study 2
Target: Calcium/calmodulin-dependent protein kinase type II subunit alpha (CAMK2A, Homo sapiens, UniProt Q9UQM7)
Sequence of UniProt Q9UQM7 (whole entry, looked up): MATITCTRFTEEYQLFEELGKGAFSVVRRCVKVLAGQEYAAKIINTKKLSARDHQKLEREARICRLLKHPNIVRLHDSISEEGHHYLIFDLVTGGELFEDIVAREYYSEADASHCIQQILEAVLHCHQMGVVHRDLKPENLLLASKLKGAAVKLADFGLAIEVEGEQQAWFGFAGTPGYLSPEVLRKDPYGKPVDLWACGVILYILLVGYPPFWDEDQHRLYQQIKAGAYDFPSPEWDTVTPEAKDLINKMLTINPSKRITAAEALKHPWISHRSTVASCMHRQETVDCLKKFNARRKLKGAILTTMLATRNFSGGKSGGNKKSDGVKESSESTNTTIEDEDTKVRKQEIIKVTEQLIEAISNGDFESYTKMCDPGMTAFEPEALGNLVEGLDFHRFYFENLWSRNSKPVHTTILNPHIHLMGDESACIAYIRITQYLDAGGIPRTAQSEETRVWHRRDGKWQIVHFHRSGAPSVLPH
Read-out: enzyme activity
Action: inhibitor
Tested at: 10 µM
| Structure (SMILES) | inhibition [%] |
| --- | --- |
| CC(C)=CCC[C@@](C)(O)[C@H]1CC[C@]2(C)[C@@H]1[C@H](O)C[C@@H]1[C@@]3(C)CC[C@H](O[C@@H]4O[C@H](CO)[C@@H](O)[C@H](O)[C@H]4O[C@@H]4O[C@H](CO)[C@@H](O)[C@H](O)[C@H]4O[C@@H]4OC[C@@H](O)[C@H](O)[C@H]4O)C(C)(C)[C@@H]3CC[C@]12C | -13 |
| C[C@@H]1O[C@@H](O[C@@H]2[C@@H](O)[C@H](O[C@H]3CC[C@]4(C)[C@H]5CC=C6[C@@H]7CC(C)(C)CC[C@]7(C(=O)O[C@@H]7O[C@H](CO)[C@@H](O)[C@H](O)[C@H]7O)CC[C@@]6(C)[C@]5(C)CC[C@H]4C3(C)C)O[C@H](C(=O)O)[C@H]2O)[C@H](O)[C@H](O)[C@H]1O | -33 |
| CNC(=C[N+](=O)[O-])NCCSCc1csc(CN(C)C)n1 | -4 |
| NS(=O)(=O)c1cc2c(cc1C(F)(F)F)NC(Cc1ccccc1)NS2(=O)=O (stereo not shown) | -6 |
| O=P(O)(O)OC(Cn1cncn1)(Cn1cncn1)c1ccc(F)cc1F | 0 |
| C/C1=C\CC[C@]23O[C@H]2[C@@H](OC3=O)c2c(C)coc2C1 | -23 |

Study 3
Target: AP2-associated protein kinase 1 (AAK1, Homo sapiens, UniProt Q2M2I8)
Sequence of UniProt Q2M2I8 (whole entry, looked up): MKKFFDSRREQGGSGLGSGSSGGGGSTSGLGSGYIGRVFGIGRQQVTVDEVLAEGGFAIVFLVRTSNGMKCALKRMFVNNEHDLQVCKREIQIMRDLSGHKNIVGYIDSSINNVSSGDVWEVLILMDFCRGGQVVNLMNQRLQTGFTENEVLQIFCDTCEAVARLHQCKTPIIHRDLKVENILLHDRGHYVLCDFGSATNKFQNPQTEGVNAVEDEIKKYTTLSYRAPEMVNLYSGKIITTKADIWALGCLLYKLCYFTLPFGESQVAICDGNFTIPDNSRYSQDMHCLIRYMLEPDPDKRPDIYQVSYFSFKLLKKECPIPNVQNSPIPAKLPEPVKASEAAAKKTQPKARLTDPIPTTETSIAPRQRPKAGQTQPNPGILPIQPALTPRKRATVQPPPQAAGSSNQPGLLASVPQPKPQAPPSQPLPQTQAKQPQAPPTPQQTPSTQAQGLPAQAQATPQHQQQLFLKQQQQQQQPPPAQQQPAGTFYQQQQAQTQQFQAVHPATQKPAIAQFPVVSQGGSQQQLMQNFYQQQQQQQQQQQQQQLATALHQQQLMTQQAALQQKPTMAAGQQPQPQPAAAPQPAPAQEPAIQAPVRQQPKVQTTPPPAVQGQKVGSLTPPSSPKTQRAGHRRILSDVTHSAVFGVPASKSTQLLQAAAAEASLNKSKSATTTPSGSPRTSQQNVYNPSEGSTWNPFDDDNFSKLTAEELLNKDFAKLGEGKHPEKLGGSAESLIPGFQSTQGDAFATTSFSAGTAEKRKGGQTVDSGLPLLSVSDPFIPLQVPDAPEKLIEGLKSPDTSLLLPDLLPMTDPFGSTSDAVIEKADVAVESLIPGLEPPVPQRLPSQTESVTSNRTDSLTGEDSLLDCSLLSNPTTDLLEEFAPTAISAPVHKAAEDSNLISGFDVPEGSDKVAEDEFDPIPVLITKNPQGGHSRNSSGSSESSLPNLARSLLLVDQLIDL
Read-out: binding
Tested at: 0.1 µM
| Compound | remaining binding |
| --- | --- |
| Cc1ccc(-c2cnc([C@@]3(O)CC[C@H](C(=O)O)C(C)(C)C3)s2)cc1Nc1cccc(C(F)(F)F)n1 | 85.7% |
| C[C@@H]1CN(c2cc(-c3n[nH]c4ccc(OC5(C)CC5)cc34)ncn2)C[C@H](C)O1 | 100% |
| C[C@@H](NC(=O)Nc1cc2[nH]ncc2c(CO)n1)c1ccccc1 | 52.5% |
| Cc1cc(Nc2nccc(C)n2)cc(-c2cnc([C@@]3(O)CC[C@H](C(=O)O)C(C)(C)C3)s2)c1 | 100% |

Study 4
SMILES: CC(C)CN(C)c1nc(N)c(C(=O)N=C(N)N)nc1Cl
Read-out: β-arrestin recruitment
Action: agonist
Method: PRESTO-Tango
Tested at: 10 µM
Baseline: untreated
| target | fold over basal |
| --- | --- |
| CCR7 (Homo sapiens, UniProt P32248) | 1.14 |
| Probable G-protein coupled receptor 162 (GPR162, Homo sapiens, UniProt Q16538) | 0.87 |
| GRM1 (Homo sapiens, UniProt Q13255) | 0.98 fold |
| GNRHR (Homo sapiens, UniProt P30968) | 0.92 fold |
| N-formyl peptide receptor 3 (Homo sapiens, UniProt P25089) | 0.48 fold |
| HRH3 (Homo sapiens, UniProt Q9Y5N1) | 0.6 fold |
| G-protein coupled receptor family C group 5 member B (GPRC5B, Homo sapiens, UniProt Q9NZH0) | 0.85 |
| Apelin receptor (APLNR, Homo sapiens, UniProt P35414) | 0.98 |

Some of these lines once more (study 4):
| target | fold over basal |
| --- | --- |
| HRH3 (Homo sapiens, UniProt Q9Y5N1) | 0.6 fold |
| GNRHR (Homo sapiens, UniProt P30968) | 0.92 fold |
| CCR7 (Homo sapiens, UniProt P32248) | 1.14 |
| Apelin receptor (APLNR, Homo sapiens, UniProt P35414) | 0.98 |
